# Published values pooled from the literature.
# Lines come from different studies, so protocols differ. Values joined by “and” are separate records of one study, mostly repeats; a detail may differ.
# AMY2: Pancreatic alpha-amylase (AMY2, Sus scrofa, UniProt P00690)
# UniProt P00690, sequence (whole entry, looked up): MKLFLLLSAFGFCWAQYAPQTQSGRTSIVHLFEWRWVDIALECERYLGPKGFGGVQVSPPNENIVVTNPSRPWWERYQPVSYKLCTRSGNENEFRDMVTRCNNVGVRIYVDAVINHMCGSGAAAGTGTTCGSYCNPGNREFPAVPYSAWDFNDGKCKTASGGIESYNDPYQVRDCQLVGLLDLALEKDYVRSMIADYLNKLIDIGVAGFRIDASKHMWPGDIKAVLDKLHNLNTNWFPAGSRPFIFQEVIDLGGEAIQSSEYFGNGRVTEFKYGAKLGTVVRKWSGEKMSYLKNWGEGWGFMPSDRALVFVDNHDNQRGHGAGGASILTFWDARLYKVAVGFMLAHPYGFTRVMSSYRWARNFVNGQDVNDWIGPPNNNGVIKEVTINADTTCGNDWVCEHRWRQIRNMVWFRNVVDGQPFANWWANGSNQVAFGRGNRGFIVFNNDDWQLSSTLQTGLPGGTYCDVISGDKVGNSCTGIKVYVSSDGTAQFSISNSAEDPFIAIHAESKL
# CDK7 with cyclin H: Cyclin-dependent kinase 7, with cyclin H (CDK7, Homo sapiens, UniProt P50613)
# UniProt P50613, sequence (whole entry, looked up): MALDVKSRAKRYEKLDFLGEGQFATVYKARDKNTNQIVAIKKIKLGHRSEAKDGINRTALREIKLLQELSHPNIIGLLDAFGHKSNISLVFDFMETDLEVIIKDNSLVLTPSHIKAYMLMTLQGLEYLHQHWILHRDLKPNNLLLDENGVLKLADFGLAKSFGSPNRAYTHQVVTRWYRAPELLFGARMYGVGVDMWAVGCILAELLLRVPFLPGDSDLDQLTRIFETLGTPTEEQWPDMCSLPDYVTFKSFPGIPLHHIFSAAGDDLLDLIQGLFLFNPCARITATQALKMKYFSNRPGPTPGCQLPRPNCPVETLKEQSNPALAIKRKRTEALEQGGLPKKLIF
# NT5E: 5'-nucleotidase (NT5E, Homo sapiens, UniProt P21589)
# UniProt P21589, sequence (whole entry, looked up): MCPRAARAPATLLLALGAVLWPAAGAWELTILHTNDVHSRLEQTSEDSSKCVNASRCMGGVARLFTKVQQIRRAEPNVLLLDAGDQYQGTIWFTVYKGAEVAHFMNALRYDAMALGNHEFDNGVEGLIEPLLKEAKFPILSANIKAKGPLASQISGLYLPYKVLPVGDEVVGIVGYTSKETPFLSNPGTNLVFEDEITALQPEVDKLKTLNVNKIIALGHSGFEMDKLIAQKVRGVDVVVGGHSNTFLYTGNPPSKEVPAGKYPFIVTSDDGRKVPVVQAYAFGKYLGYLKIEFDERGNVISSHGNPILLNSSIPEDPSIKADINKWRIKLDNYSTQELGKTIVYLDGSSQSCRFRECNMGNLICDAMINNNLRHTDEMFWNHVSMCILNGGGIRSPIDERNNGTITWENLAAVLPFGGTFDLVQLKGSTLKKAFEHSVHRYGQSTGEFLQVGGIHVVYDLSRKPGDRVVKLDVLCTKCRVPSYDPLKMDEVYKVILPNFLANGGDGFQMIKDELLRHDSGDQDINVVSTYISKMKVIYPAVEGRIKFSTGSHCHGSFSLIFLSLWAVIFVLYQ
# PIP4K2C: Phosphatidylinositol 5-phosphate 4-kinase type-2 gamma (PIP4K2C, Homo sapiens, UniProt Q8TBX8)
# UniProt Q8TBX8, sequence (whole entry, looked up): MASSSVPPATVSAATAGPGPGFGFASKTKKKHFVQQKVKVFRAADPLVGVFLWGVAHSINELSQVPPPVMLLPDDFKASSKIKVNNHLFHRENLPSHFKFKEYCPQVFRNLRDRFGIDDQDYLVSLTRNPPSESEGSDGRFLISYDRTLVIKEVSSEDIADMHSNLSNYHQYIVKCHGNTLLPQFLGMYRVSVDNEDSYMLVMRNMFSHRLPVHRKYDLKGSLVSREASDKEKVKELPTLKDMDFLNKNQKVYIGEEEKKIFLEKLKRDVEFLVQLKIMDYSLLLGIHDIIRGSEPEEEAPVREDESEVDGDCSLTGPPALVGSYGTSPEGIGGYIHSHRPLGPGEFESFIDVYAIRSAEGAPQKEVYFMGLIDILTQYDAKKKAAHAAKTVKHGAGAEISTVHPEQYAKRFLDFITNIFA
# rep papain-like protease: Replicase polyprotein 1ab, papain-like protease (rep, Porcine epidemic diarrhea virus, UniProt P0C6Y4)
# SLC6A2: Sodium-dependent noradrenaline transporter (SLC6A2, Homo sapiens, UniProt P23975)
# UniProt P23975, sequence (whole entry, looked up): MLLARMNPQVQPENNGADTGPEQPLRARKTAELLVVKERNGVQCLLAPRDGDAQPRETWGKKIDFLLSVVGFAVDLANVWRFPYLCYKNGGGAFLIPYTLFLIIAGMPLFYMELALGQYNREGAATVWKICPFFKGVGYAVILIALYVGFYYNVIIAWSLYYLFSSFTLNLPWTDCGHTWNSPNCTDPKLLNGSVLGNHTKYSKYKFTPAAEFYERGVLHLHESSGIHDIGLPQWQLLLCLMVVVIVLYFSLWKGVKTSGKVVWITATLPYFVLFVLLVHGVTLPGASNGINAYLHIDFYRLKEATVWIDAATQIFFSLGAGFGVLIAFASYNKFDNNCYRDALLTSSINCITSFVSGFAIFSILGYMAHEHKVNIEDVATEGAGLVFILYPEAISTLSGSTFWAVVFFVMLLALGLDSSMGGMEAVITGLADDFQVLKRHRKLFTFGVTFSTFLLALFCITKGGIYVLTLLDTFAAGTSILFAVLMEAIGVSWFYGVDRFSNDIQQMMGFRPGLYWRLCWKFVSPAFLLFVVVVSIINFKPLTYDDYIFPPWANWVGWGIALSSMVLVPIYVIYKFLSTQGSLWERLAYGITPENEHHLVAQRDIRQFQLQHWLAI
# SLC22A11: Solute carrier family 22 member 11 (SLC22A11, Homo sapiens, UniProt Q9NSA0)
# UniProt Q9NSA0, sequence (whole entry, looked up): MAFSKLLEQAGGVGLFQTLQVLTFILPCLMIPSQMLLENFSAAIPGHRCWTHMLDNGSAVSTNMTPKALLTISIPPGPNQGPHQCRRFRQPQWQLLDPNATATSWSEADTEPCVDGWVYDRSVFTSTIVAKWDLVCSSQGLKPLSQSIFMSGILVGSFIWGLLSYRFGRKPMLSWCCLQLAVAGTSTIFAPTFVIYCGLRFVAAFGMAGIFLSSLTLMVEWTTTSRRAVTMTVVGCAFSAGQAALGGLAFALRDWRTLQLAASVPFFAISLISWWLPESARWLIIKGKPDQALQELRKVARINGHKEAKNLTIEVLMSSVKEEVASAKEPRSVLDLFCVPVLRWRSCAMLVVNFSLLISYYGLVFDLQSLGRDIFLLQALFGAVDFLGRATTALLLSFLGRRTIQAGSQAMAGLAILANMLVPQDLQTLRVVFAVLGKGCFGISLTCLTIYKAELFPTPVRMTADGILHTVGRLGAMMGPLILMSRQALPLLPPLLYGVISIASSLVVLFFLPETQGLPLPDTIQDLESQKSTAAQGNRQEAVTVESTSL
# MAPK3: Mitogen-activated protein kinase 3 (MAPK3, Homo sapiens, UniProt P27361)
# UniProt P27361, sequence (whole entry, looked up): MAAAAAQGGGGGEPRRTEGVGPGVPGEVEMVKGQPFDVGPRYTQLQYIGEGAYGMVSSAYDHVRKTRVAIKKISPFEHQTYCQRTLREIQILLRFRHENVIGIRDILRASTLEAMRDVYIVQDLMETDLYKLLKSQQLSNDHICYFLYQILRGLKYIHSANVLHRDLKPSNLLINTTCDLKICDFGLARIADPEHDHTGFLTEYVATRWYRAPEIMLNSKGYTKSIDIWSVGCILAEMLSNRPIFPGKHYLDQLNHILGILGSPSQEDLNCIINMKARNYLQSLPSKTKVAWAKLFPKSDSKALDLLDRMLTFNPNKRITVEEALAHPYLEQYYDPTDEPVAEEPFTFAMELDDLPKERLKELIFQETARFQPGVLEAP
# rep main protease: Replicase polyprotein 1ab, main protease (rep, Porcine epidemic diarrhea virus, UniProt P0C6Y4)
# UniProt Q9NUW8, sequence (whole entry, looked up): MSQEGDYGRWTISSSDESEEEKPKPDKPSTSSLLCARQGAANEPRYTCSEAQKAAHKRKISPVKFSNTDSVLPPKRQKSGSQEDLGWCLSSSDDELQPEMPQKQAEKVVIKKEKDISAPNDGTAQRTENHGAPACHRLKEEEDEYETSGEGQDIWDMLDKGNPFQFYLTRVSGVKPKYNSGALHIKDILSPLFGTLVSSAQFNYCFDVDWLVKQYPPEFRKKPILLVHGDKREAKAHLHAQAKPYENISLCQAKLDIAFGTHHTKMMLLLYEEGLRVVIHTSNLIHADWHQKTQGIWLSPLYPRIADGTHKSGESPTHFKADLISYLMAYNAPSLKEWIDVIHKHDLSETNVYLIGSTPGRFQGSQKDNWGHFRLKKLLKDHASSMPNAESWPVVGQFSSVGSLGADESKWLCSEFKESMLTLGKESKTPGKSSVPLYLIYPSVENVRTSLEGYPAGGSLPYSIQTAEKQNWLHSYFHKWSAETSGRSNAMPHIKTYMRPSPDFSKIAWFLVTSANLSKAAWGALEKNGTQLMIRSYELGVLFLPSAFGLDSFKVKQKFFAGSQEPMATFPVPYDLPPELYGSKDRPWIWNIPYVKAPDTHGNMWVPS
# UniProt P30559, sequence (whole entry, looked up): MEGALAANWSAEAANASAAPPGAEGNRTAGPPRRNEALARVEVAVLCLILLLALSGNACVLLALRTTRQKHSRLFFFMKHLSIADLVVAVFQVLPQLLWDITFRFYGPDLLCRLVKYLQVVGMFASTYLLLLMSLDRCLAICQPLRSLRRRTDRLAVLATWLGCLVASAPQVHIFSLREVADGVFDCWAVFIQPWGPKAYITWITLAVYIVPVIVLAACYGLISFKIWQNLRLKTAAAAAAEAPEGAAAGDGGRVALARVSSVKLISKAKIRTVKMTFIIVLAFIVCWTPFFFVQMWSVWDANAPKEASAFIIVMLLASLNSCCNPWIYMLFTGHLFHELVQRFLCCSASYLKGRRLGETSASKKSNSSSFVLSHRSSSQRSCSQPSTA
# UniProt P27338, sequence (whole entry, looked up): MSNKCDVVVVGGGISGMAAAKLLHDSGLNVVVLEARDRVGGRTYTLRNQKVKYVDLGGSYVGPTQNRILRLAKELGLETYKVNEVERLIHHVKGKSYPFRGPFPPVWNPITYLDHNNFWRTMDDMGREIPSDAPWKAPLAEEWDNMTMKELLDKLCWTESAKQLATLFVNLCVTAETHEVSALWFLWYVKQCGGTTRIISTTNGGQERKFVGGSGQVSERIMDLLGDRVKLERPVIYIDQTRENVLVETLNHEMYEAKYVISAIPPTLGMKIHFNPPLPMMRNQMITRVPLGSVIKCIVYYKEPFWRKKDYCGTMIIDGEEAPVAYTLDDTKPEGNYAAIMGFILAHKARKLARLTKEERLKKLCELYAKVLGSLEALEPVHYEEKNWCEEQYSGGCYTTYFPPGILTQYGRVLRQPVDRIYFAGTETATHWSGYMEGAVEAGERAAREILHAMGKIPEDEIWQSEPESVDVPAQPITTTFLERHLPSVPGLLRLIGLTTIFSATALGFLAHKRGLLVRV
SMILES,target,read-out,mode,method,concentration,time,inhibition
NC/C(=C\F)COc1cccc(Cn2c(=S)[nH]c(=O)c3[nH]cnc32)c1,"EDNRB (Homo sapiens, UniProt P24530)",ligand displacement,,radioligand,10 µM,,< 50%
O=c1cc(-c2ccc(O)cc2)oc2cc(O)cc(O)c12,AMY2,enzyme activity,inhibitor,,50 µM,30 min,88%
Cc1cc(=O)c2c(O)cc(O)c([C@H]3CCN(C)C[C@H]3O)c2o1,CDK7 with cyclin H,enzyme activity,inhibitor,ADP detection,10 µM,,75%
CN(O)N=Nc1ccc(S(=O)(=O)Nc2nccs2)cc1,AMY2,enzyme activity,inhibitor,,240 µg/mL,,57.9%
COc1ccc(NC(=O)c2sc3nc(-c4ccccc4)cc(C(F)(F)F)c3c2N)cc1,NT5E,enzyme activity,inhibitor,HPLC,10 µM,,92%
CCCn1cnc2ccc(-c3ccc(NC(=O)CC)nc3)cc2c1=O,PIP4K2C,binding,,,0.5 µM,,98.8%
CN1CC(Oc2cnc(C#N)cc2-c2ccn3nc(NC(=O)C4CC4)cc3c2)C1,"LTK (Homo sapiens, UniProt P29376)",enzyme activity,inhibitor,,1 µM,,-3%
COc1cc(CNC(=O)c2sc3nc(C)cc(C(F)(F)F)c3c2N)cc(OC)c1OC,NT5E,enzyme activity,inhibitor,,10 µM,,22%
COc1cc(CNC(=O)c2ccc(Cl)c(F)c2)cc(Br)c1OC,rep papain-like protease,enzyme activity,inhibitor,FRET,10 µM,,5.83%
NOCc1ccc(-c2nc3cc(-c4ccccc4)ccn3c2Nc2ccc(C(=O)O)cc2)cc1,"TDP1 (Homo sapiens, UniProt Q9NUW8)",enzyme activity,inhibitor,,100 µM,,34.5% and 44.8% and 23.5%
CC(C)OCCn1c(=S)[nH]c(=O)c2[nH]ccc21,"Myeloperoxidase (MPO, Homo sapiens, UniProt P05164)",enzyme activity,inhibitor,fluorescence,300 pM,,-0.594%
O=c1c(O)c(-c2ccc(O)cc2)oc2cc(O)cc(O)c12,CDK7 with cyclin H,enzyme activity,inhibitor,ADP detection,10 µM,,32.2%
CCOC(=O)C12CC1C(n1ccc3c(NC4CC4)nc(C#Cc4ccccc4)nc31)C(O)C2O (centres unmarked),SLC6A2,ligand displacement,,radioligand,10 µM,,19%
COc1cc(CNC(=O)c2ccc3ccccc3c2)cc(Br)c1OC,rep papain-like protease,enzyme activity,inhibitor,FRET,10 µM,,1.77%
Cc1cc(-c2ccccc2)c2c(N)c(C(=O)Nc3ccon3)sc2n1,NT5E,enzyme activity,inhibitor,,10 µM,,51%
CCCCCCCCCCCC1=C(O)C(=O)C=C(O)C1=O,CDK7 with cyclin H,enzyme activity,inhibitor,ADP detection,10 µM,,-17.8%
CCCCC(=O)Nc1ccc(-c2ccc3ncn(CCC)c(=O)c3c2)c(C)n1,PIP4K2C,binding,,competition with immobilised ligand,0.5 µM,,94.3%
CCOC(=O)c1ccc(NC(=O)CCSc2nc(C)cc(C)c2C#N)cc1,NT5E,enzyme activity,inhibitor,,10 µM,,-5%
COc1cc(CNC(=O)c2cccc(C(F)(F)F)c2)cc(Br)c1OC,rep papain-like protease,enzyme activity,inhibitor,FRET,10 µM,,1.46%
CCCCC(=O)Nc1ccc(-c2ccc3ncn(CC)c(=O)c3c2)cn1,PIP4K2C,binding,,competition with immobilised ligand,0.5 µM,,98.3%
CCCc1nc(C(C)(C)O)c(C(=O)O)n1Cc1ccc(-c2ccccc2-c2nnn[nH]2)cc1,SLC22A11,transporter uptake,inhibitor,,25 µM,,50 to 90%
COc1cccc(CN2CCC(CN3Cc4cc(OC)c(OC)cc4C3=O)CC2)n1,"ache (Electrophorus electricus, UniProt O42275)",enzyme activity,inhibitor,,1 µM,,10.8%
CSc1ccccc1C(=O)NCc1cc(O)c(O)c(Br)c1,rep papain-like protease,enzyme activity,inhibitor,FRET,10 µM,,8.05%
CCN1/C(=C/C(C)=O)Sc2ccc(F)cc21,"Oxytocin receptor (OXTR, Homo sapiens, UniProt P30559)",ligand displacement,,radioligand,10 µM,,3.45%
CC[C@H](C)[C@H](NC(=O)[C@H](CCC(N)=O)NC(=O)[C@H](CC(C)C)NC(=O)[C@H](CCSC)NC(=O)[C@H](CCCCN)NC(=O)[C@H](CO)NC(=O)[C@H](CO)NC(=O)[C@H](CCSC)NC(=O)[C@H](CC(C)C)NC(=O)[C@H](CC(N)=O)NC(=O)[C@@H](NC(=O)[C@@H](NC(=O)[C@H](CO)NC(=O)[C@H](CC(C)C)NC(=O)[C@H](CS)NC(=O)[C@H](CCCNC(=N)N)NC(=O)[C@H](CC(=O)O)NC(=O)[C@H](Cc1c[nH]c2ccccc12)NC(=O)[C@H](Cc1ccccc1)NC(=O)[C@H](C)NC(=O)[C@H](CCC(=O)O)NC(=O)[C@@H](N)CCCCN)C(C)C)[C@@H](C)CC)C(=O)N[C@@H](CC(N)=O)C(=O)N[C@@H](C)C(=O)O,MAPK3,enzyme activity,inhibitor,radiometric,100 µM,,6%
CCOc1nc2cccc(C(=O)O)c2n1Cc1ccc(-c2ccccc2-c2nc(=O)o[nH]2)cc1,SLC22A11,transporter uptake,inhibitor,,25 µM,,50 to 90%
COc1ccc(C(=O)NCc2ccc(O)c(O)c2)cc1,rep main protease,enzyme activity,inhibitor,FRET,10 µM,,76.2%
CC[C@H](C)[C@H](NC(=O)[C@H](CCC(N)=O)NC(=O)[C@@H](NC(=O)[C@H](CCSC)NC(=O)[C@H](CCCCN)NC(=O)[C@H](CO)NC(=O)[C@@H](NC(=O)[C@H](CCSC)NC(=O)[C@H](CC(C)C)NC(=O)[C@H](CC(N)=O)NC(=O)[C@@H](NC(=O)[C@@H](NC(=O)[C@H](CO)NC(=O)[C@H](CC(C)C)NC(=O)[C@H](C)NC(=O)[C@H](CCCNC(=N)N)NC(=O)[C@H](CCC(=O)O)NC(=O)[C@H](Cc1ccc(O)cc1)NC(=O)[C@H](Cc1ccccc1)NC(=O)[C@H](C)NC(=O)[C@H](CC(N)=O)NC(=O)[C@@H](N)CCCCN)[C@@H](C)CC)[C@@H](C)CC)[C@@H](C)O)C(C)C)C(=O)N[C@@H](CC(N)=O)C(=O)N[C@H](C(=O)O)C(C)C,MAPK3,enzyme activity,inhibitor,radiometric,100 µM,,15%
CCCN(O)N=Nc1ccc(S(=O)(=O)Nc2nccs2)cc1,AMY2,enzyme activity,inhibitor,,20 µg/mL,,10.5%
COc1ccc(NC(=O)CSc2nc(-c3ccccc3)cc(C(F)(F)F)c2C#N)cc1,NT5E,enzyme activity,inhibitor,HPLC,10 µM,,85%
COc1cc(CNC(=O)c2cccc(Br)c2)cc(Br)c1OC,rep papain-like protease,enzyme activity,inhibitor,FRET,10 µM,,21.4%
CCN(O)N=Nc1ccc(S(=O)(=O)Nc2nccs2)cc1,AMY2,enzyme activity,inhibitor,,20 µg/mL,,5.26%
COc1cc(CNC(=O)c2ccc(Br)cc2)cc(Br)c1OC,rep main protease,enzyme activity,inhibitor,FRET,10 µM,,64.3%
O=C(Nc1cccc(Br)c1)c1ccc2c(c1)C(=O)NC2=O,"MAOB (Homo sapiens, UniProt P27338)",enzyme activity,inhibitor,,1 µM,,81.3%
Cc1cccc(N(O)N=Nc2ccc(S(=O)(=O)Nc3nccs3)cc2)c1,AMY2,enzyme activity,inhibitor,,20 µg/mL,,15.8%
COc1cc(CNC(=O)CSc2nc(C)cc(C)c2C#N)cc(OC)c1OC,NT5E,enzyme activity,inhibitor,,10 µM,,-14%
Cc1ccc(N(O)N=Nc2ccc(S(=O)(=O)Nc3cc(C)on3)cc2)cc1,AMY2,enzyme activity,inhibitor,,120 µg/mL,,42.1%
CCc1nn(C)c2nc(-c3ccc(C(=O)O)cc3)nc(NCc3ccc(F)cc3)c12,"PDE4A (Homo sapiens, UniProt P27815)",enzyme activity,inhibitor,radiometric,10 µM,,31.2%
CCN(O)N=Nc1ccc(S(=O)(=O)Nc2onc(C)c2C)cc1,AMY2,enzyme activity,inhibitor,,20 µg/mL,,10.5%
COc1ccc(CNC(=O)c2ccccc2)cc1OC,rep papain-like protease,enzyme activity,inhibitor,FRET,10 µM,,49.4%
Cc1ccc(N(O)N=Nc2ccc(S(=O)(=O)Nc3onc(C)c3C)cc2)cc1,AMY2,enzyme activity,inhibitor,,240 µg/mL,,47.4%
CCOC(=O)[C@@]12C[C@@H]1[C@@H](n1cnc3c(NCCO)nc(I)nc31)[C@H](O)[C@@H]2O,SLC6A2,ligand displacement,,radioligand,10 µM,,27%
O=S(=O)(Nc1nccs1)c1ccc(N=NN(O)c2ccccc2)cc1,AMY2,enzyme activity,inhibitor,,300 µg/mL,,68.4%
CCN(CC)c1ccc(C2=NNC(=O)CC2C)cc1[N+](=O)[O-] (centres unmarked),"PDE1A (Homo sapiens, UniProt P54750)",enzyme activity,inhibitor,,0.1 µM,,5%

# For quick reference, copied from above:
SMILES,target,read-out,mode,method,concentration,time,inhibition
COc1cc(CNC(=O)c2ccc(Cl)c(F)c2)cc(Br)c1OC,rep papain-like protease,enzyme activity,inhibitor,FRET,10 µM,,5.83%
NOCc1ccc(-c2nc3cc(-c4ccccc4)ccn3c2Nc2ccc(C(=O)O)cc2)cc1,"TDP1 (Homo sapiens, UniProt Q9NUW8)",enzyme activity,inhibitor,,100 µM,,34.5% and 44.8% and 23.5%
CC(C)OCCn1c(=S)[nH]c(=O)c2[nH]ccc21,"Myeloperoxidase (MPO, Homo sapiens, UniProt P05164)",enzyme activity,inhibitor,fluorescence,300 pM,,-0.594%
O=c1c(O)c(-c2ccc(O)cc2)oc2cc(O)cc(O)c12,CDK7 with cyclin H,enzyme activity,inhibitor,ADP detection,10 µM,,32.2%
CCOC(=O)C12CC1C(n1ccc3c(NC4CC4)nc(C#Cc4ccccc4)nc31)C(O)C2O (centres unmarked),SLC6A2,ligand displacement,,radioligand,10 µM,,19%
COc1cc(CNC(=O)c2ccc3ccccc3c2)cc(Br)c1OC,rep papain-like protease,enzyme activity,inhibitor,FRET,10 µM,,1.77%
